Experimental data collected from several papers.
Lines come from different studies, so protocols differ.
CSNK2A1: Casein kinase II subunit alpha (CSNK2A1, Homo sapiens, UniProt P68400)
Sequence of UniProt P68400 (whole entry, looked up): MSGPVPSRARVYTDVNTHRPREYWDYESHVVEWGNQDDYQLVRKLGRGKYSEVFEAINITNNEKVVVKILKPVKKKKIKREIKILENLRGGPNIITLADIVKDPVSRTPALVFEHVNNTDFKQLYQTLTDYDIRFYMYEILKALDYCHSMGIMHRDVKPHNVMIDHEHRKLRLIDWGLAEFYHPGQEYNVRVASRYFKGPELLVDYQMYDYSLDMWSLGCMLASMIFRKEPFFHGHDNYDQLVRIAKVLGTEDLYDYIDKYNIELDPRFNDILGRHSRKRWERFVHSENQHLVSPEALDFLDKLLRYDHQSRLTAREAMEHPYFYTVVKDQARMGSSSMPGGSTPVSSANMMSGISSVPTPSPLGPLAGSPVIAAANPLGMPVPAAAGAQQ

Compound | target | assay | conditions | scale | quantity | result
Cc1cc(Nc2cc(N3CCN(C)CC3)nc(Sc3ccc(NC(=O)C4CC4)cc3)n2)[nH]n1 | CSNK2A1 | kinase activity, KinaseProfiler | 0.03 µM, species human | reference: control | remaining activity | 99%
COc1cc(F)ccc1-c1ncnc(Nc2cccc(C[S@](C)(=N)=O)c2)n1 | CSNK2A1 | kinase activity | 10 µM, together with: 10 µM ATP | – | remaining activity | 102%
C=CC(=O)N1CCC(COCC(=O)N2CCN(c3nc(-c4cnc(N)nc4C(F)F)nc(N4CCOC[C@@H]4C)n3)CC2)CC1 | CSNK2A1 | KINOMEscan | 1 µM | – | remaining binding | 92%
C#Cc1cc(-c2cc(Nc3nc(N[C@@H](C)c4ccc(F)cn4)ncc3Cl)n[nH]2)ccc1C=O | CSNK2A1 | enzyme activity, inhibitor | 0.2 µM | – | inhibition | 57.3%
O=C(NC1CCC1)c1ccc2nc(-c3cccc(NS(=O)(=O)NCCN4CCCCC4)c3)cn2c1 | CSNK2A1 | enzyme activity | 10 µM | – | remaining activity | 64%
CC/C(=N\NC(=O)NCc1cccc(O)c1)c1ccc(O)c(C)c1O | Casein kinase II subunit alpha, with CK2 beta (CSNK2A1, Homo sapiens, UniProt P68400) | kinase activity | 0.1 µM | – | inhibition | -4.2%
COc1cc(Cl)c(C(=O)N[C@@H](CN[C@H]2CC[C@@H](N)CC2)Cc2ccc(C#N)cc2)cc1-c1ccc(CN[C@H](C)c2ccc(C)cc2)o1 | CSNK2A1 | enzyme activity, KinaseProfiler panel | 1 µM | – | remaining activity | 102%
O=C1NC(=O)/C(=C/c2ccc(-c3ccc(F)cc3O)o2)S1 | CSNK2A1 | enzyme activity | 10 µM | – | remaining activity | 25%
CNc1ncc2c(/C=C/C(=O)N3CCC(OC)CC3)nn(Cc3cccc(C(F)(F)F)c3)c2n1 | CSNK2A1 | kinase activity, inhibitor | 1 µM | reference: untreated control | remaining activity | 109%
CN1CC(Oc2cnc(C#N)cc2-c2ccn3nc(NC(=O)C4CC4)cc3c2)C1 | CSNK2A1 | kinase activity | 1 µM, ATP15 | – | inhibition | 6%

Excerpt of the above:
Compound | target | assay | conditions | scale | quantity | result
CC/C(=N\NC(=O)NCc1cccc(O)c1)c1ccc(O)c(C)c1O | Casein kinase II subunit alpha, with CK2 beta (CSNK2A1, Homo sapiens, UniProt P68400) | kinase activity | 0.1 µM | – | inhibition | -4.2%
